Assay results pooled from the literature.
Each numbered part is a random draw from the data of one study; scales do not carry over between parts. Positions count from the first letter of the parent shown.

Sample 1 — target: NFE2, bZIP domain (human); technique: DHFR protein complementation; sample: yeast; baseline: wild-type JUN-FOS pair; reading: higher = stronger binding; endpoint: binding fitness
Setting: single substitutions, most at no-binding floor
Parent: JUN, bZIP domain (human); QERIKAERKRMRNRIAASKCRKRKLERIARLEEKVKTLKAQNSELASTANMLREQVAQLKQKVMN; partner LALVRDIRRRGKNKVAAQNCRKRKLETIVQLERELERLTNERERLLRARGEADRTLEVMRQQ
A29H: -1.39 natural log
N42C: -1.4 natural log
A46T: -1.24 natural log
A49Y: -1.43 natural log
A46R: -1.37 natural log
K34S: -1.37 natural log
N42S: -1.55 natural log
L52D: -1.49 natural log
V56K: -1.59 natural log
I28H: -1.49 natural log
S47M: -1.36 natural log
A49R: -1.4 natural log
I28K: -1.51 natural log
E32F: -1.56 natural log
L45N: -1.54 natural log
A57S: -1.52 natural log
V56G: -1.51 natural log

Sample 2 — target: CCNE2, cyclin fold, Cln2 fusion (human); technique: yeast growth competition, sequencing; sample: yeast; setting: weak parent motif; baseline: not given; reading: higher = stronger binding; endpoint: normalised enrichment score
Parent: CDC6 docking peptide (human); TLKGRRLVFDNQL
TLKGRRLVFDPQL [N11P]: 0.897
TLKGRRLLFDNQL [V8L]: 0.847
TLKGRRLVADNQL [F9A]: -0.254
TLKGCRLVFDNQL [R5C]: -0.0259
TLKLRRLVFDNQL [G4L]: 0.349
MLKGRRLVFDNQL [T1M]: -0.00485
TLWGRRLVFDNQL [K3W]: -1.63
TLKGRRLVNDNQL [F9N]: -0.0971
TLKGFRLVFDNQL [R5F]: 0.388
TLKGRRFVFDNQL [L7F]: -0.0611
TLKGRRLVFDNIL [Q12I]: 0.582
TLKGRRLVFWNQL [D10W]: 0.462
TLKGRKLVFDNQL [R6K]: 0.206
TLHGRRLVFDNQL [K3H]: 0.294
TLKNRRLVFDNQL [G4N]: 0.702
TLKGRRLVFCNQL [D10C]: 1.11
TLKGRRSVFDNQL [L7S]: 0.183
TLKGRRLVFDDQL [N11D]: 0.11

Sample 3 — technique: protein-binding microarray; molecule type: double-stranded DNA, one strand shown; sample: in vitro; tested at: 2200 nM top; setting: 60-bp whole probe; together with: salmon DNA 0.4 mg/ml; baseline: random background probes; reading: higher = stronger binding; endpoint: fitted relative affinity; shared flanks, not repeated: GCCTAGCAC … GTCTTGATTCGCTTGACGCTGCTG
Target: Interferon regulatory factor 7, full length, phosphomimetic (IRF7, Homo sapiens, UniProt Q92985, residues 1-503, S471D/S472D/S475D/S476D/S477D/S483D/S484D/S487D)
Construct (chain): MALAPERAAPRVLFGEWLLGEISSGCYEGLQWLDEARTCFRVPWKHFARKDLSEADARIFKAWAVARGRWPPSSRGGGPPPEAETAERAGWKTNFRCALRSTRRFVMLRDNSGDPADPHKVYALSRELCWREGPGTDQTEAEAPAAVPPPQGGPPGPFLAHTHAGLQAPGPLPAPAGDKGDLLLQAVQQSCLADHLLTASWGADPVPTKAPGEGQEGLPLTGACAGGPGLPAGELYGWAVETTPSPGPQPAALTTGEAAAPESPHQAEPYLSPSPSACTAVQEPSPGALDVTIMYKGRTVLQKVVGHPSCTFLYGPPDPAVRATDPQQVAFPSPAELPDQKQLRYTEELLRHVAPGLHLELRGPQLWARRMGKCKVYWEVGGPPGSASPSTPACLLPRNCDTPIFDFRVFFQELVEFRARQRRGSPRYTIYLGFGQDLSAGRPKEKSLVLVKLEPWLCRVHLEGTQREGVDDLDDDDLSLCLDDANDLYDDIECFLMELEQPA
TTAGGTCTCCTTTTCCGTTAGTGCTAG: 2.06 z-score
GACGGTTTCGTTATCGGGACGTGCTAG: 6.76 z-score
CCAGGGCTGCCAGCCTCCTCGTGCTAG: -1.5 z-score
TTAGGACTGCTACAGCTTTAGTGCTAG: -0.353 z-score
TTAGGACTGCTGTTCCTTTAGTGCTAG: 0.0868 z-score
GACGATTTCGGGTATCGTGACGTGCTA: 2.86 z-score
GACGGCTTCCTTTCCCTGACGTGCTAG: 1.46 z-score
ATATATTCATATATATATGAGTGCTAG: 0.617 z-score
TTAGGTCTCCTTTTCCTCTAGTGCTAG: 1.63 z-score
GACGGTACCCTTATCCTGACGTGCTAG: 0.899 z-score
GACGATATCGGGTTTCGAGAGGTGCTA: 1.04 z-score
AGACCATCCTGTATGGATGTGTGCTAG: -0.000221 z-score

Sample 4 — technique: RNA Bind-n-Seq; molecule type: RNA; sample: in vitro; tested at: 365 nM; baseline: no-protein control; reading: higher = stronger binding; endpoint: RBNS enrichment (R)
Target: RNA binding protein fox-1 homolog 2, RRM domain, GST-SBP tag (RBFOX2, Homo sapiens, UniProt O43251-10, residues 100-194)
Setting: natural RNA segment, single round, ends assumed
Construct (chain): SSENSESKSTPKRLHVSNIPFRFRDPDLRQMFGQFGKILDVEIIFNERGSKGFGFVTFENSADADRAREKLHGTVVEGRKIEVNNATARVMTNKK
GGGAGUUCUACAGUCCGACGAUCUGAUAUCCCUUCUAUGAGCACAUUCUUAGCAGAAGAAAACAAUCCAACUACCAACACCCGACUCUAUUGGUGCAUUUAAAAUGUGAUUCCAUUUUUUCUUACAAUUCUUCUGGAAUUCUCGGGUGCCAA: 0.693
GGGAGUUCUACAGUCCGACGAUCCAUAAGUCCAUUUGGCCAAGUCAGCCUGUGUGCUACUGAACUGUCAAGAGAUUGCCACUCUCAUAGGUAAACAUGAGGAAAACAGGAAAAGUUUGCUUCUUUUUAUUGAUUGGAAUUCUCGGGUGCCAA: 0.251
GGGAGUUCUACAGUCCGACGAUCCUUAGGCACUAUUGUCUUUUGUCUUCCAGAGUAACAUAUCUGGGCCCACCUUUCUUGCACACUGUGAUUAUGUGCUAAGAAAAGGGUGGAGUUGGGAGGACAAUUUCACUUGGAAUUCUCGGGUGCCAA: 0.427
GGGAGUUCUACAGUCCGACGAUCUAGUGUCUUAUCACUCUUUCAUGUCACAAUAGCGUGGAGCAUUAGAGAAAAGCCUAGACUUUUAGUUGAUAGCCAGUUGAAAUAUCAUUGAUAGAAUUUUAGUUUUAGGAUGGAAUUCUCGGGUGCCAA: 0.447
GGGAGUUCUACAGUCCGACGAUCUCUGAAGUGCUGGGAGCAUAGGAAGAUUGACAUUCUGUGUGACUUGUGAGGCUCAGAUGCUGAUACCAGUAACAUUCAAAAUUAACUUCACGCAUUGAAUACAUUUAAACUGGAAUUCUCGGGUGCCAA: 2.67
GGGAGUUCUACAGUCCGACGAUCCAAAGCAUGUGAAUUCUGGCAUUAGCUCUCAUAGGAGACCCAUGUGCUUCCUUGCUCAGUGCAAAACUGAUGAUUCUACUUGCUGUAGAUGAAUGGUUAACACGAGCUAGUGGAAUUCUCGGGUGCCAA: 4.2
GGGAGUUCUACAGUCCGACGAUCUAUUCAAUCUGCACAAAGUCCAAGGUAUGCUAGGUUCACCAAAGUAGAUUUGCUGGACCUGAUCCCCAAGCACAGGAGUGGUACCCUCCACAGAAGCUGGGGGAGAGUCUUGGAAUUCUCGGGUGCCAA: 0.836
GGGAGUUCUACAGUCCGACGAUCAGCUCUUCAGAGUGUAAAUGAGGGUCUGACUGGAAGCAGGGCAGCAGCUGUAAUUCUUCCAGCUCUCUCCAAAAGCACCAGUUCUUAUCUUGGGCCUGCACUAGGCUUUAUGGAAUUCUCGGGUGCCAA: 0.392
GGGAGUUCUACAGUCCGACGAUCGGGGCCCCUCGGGCCUCACUUGCCCUGAGCCCAGGAGUCCAAGGGCAGGGUGGGUCCAGCCUUGAGCCCCUCCACCCCCAAAUCCUUCCUCUCCUCCCAGUCCCACCCCUUGGAAUUCUCGGGUGCCAA: 0.459
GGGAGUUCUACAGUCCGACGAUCAAAACAAGUUUAGAUUUUAAUCAGAUUUGUAGGGUUUCUAACUUUACAGAAUUGCCUGUUUGUUUCAAUGUCUCCCUCCACUUGGCUCUUAGGGGAAUUAAGGACAGGCCUGGAAUUCUCGGGUGCCAA: 0.309
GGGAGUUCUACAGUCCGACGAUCGAGAAGACAAGAAGAAUAAUGUCAACAGAACAACAUCACUUUGGGCCAAGCAUUUGAACACUUUUUAUAUAAAAUUGUGUGAUGUCUCUUUAUGUCUGCUCUGAGCCUUAUGGAAUUCUCGGGUGCCAA: 1.2
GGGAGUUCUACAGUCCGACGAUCCACAGGUGUGUGCAGUUGUGAAGAUCUCCAGGGAGACUCCAUCUUACCCUCCCCUUGUACUAAGAGCACAAGACACAGGACUCACAGAUUGCUUGUUCUCCCCUAUAAAGUGGAAUUCUCGGGUGCCAA: 0.414

Sample 5 — technique: universal PBM; molecule type: double-stranded DNA, one strand shown; sample: in vitro; tested at: 600 nM; reading: higher = stronger binding; endpoint: E-score
Target: Sal-like protein 4, full length isoform A (SALL4, Homo sapiens, UniProt Q9UJQ4, residues 1-1053)
Sequence of UniProt Q9UJQ4 (whole entry, looked up): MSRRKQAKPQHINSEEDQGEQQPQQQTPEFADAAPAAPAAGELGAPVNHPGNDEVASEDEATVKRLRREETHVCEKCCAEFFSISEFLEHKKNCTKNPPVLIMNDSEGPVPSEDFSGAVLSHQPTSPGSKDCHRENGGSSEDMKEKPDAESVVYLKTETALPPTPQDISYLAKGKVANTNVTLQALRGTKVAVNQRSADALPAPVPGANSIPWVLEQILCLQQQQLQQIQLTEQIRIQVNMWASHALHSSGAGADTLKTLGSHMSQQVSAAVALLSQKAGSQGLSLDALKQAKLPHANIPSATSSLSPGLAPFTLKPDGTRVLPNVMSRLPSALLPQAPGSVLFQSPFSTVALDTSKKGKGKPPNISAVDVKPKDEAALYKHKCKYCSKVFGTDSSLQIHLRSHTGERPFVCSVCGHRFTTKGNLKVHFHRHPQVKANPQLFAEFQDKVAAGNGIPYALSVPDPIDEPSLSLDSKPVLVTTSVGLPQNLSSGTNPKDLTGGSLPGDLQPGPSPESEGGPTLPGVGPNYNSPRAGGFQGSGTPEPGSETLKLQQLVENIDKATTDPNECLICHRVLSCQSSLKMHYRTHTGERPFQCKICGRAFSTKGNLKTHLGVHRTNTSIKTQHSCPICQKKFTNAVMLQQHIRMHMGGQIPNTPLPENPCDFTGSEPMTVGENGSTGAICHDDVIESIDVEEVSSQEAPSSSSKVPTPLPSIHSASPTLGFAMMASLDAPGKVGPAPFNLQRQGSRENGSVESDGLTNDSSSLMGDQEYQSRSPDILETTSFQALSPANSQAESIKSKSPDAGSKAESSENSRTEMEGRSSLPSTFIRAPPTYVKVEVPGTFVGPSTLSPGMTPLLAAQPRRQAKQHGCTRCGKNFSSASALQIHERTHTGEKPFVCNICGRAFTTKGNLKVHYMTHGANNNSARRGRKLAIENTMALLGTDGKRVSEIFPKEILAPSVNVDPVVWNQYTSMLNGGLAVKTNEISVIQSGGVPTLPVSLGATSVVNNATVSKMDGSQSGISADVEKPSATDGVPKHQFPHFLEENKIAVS
Setting: 8-mer, flanks averaged, mean of replicates
ACGGAAGG: -0.235
CTAAATCA: 0.105
CAATAGTA: 0.187
AGATCGCC: -0.192
ATACGCAA: 0.133
GACGATGA: 0.0609
GATAGGAA: 0.0702
CCGCGGTA: -0.178
AACTTGGA: -0.0271
AGGTAGTA: 0.126
CTAGAGCC: -0.11
TGTACAAA: 0.278
AGGGATAC: -0.0584
ACTCCCCG: -0.203
TAGATGCA: 0.0715
ATCTGAGC: -0.0481
AGGGTTAT: 0.151
CGCGCGAG: -0.21
CCGTAAAA: 0.123
CACTTCTC: -0.121
GTCCGTTA: -0.0707
ATCCTCTG: -0.0368
AGTACATG: 0.0342
AACTGACA: -0.0188
AGGAAGCC: -0.172

Sample 6 — technique: DHFR PCA, deep sequencing; sample: yeast; together with: (+)-ABA 0.11 µM; baseline: wild-type fitted maximum; reading: higher = stronger binding; endpoint: relative binding score
Target: ABI1, truncated, D143A, DHFR fusion (Arabidopsis thaliana)
Setting: methotrexate growth selection, single substitutions
Parent: PYL1, truncated, DHFR fusion (Arabidopsis thaliana); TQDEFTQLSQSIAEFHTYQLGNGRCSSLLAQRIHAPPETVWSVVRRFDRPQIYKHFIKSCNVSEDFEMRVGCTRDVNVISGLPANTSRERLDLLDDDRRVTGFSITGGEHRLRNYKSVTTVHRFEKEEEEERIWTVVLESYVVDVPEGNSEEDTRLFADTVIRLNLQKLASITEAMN; partner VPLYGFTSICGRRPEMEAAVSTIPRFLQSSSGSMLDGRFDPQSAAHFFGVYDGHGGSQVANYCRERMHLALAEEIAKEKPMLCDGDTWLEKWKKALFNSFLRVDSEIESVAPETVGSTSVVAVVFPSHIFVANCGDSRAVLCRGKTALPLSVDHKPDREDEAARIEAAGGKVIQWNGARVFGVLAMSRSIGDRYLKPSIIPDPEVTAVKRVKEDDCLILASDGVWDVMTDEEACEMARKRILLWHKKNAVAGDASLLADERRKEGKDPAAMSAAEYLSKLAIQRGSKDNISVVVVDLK
E125I: 31.9%
E147R: 3.91%
R46V: 0.132%
E131R: 51.9%
I162H: -1.12%
S42T: 1.76%
G148R: -0.662%
Q10M: 15.5%
L156E: 1.22%
V145C: -4.5%
H122D: 0.0952%
L169W: -3.89%
P83H: 10.9%
N85L: 58.1%
V70K: 3.21%
E67Y: 8.32%
S80W: 57.3%
V142W: -6.9%
D65F: 4.88%
V100K: -1.74%
D97T: 38.5%

Repeated from above (sample 3):
AGACCATCCTGTATGGATGTGTGCTAG: -0.000221 z-score
GACGGTTTCGTTATCGGGACGTGCTAG: 6.76 z-score
CCAGGGCTGCCAGCCTCCTCGTGCTAG: -1.5 z-score
TTAGGTCTCCTTTTCCGTTAGTGCTAG: 2.06 z-score
TTAGGACTGCTACAGCTTTAGTGCTAG: -0.353 z-score
TTAGGACTGCTGTTCCTTTAGTGCTAG: 0.0868 z-score
GACGATATCGGGTTTCGAGAGGTGCTA: 1.04 z-score
